Experimental data gathered from unrelated publications.
Compare with care: the assays were run in different laboratories.
UniProt P07437, sequence (whole entry, looked up): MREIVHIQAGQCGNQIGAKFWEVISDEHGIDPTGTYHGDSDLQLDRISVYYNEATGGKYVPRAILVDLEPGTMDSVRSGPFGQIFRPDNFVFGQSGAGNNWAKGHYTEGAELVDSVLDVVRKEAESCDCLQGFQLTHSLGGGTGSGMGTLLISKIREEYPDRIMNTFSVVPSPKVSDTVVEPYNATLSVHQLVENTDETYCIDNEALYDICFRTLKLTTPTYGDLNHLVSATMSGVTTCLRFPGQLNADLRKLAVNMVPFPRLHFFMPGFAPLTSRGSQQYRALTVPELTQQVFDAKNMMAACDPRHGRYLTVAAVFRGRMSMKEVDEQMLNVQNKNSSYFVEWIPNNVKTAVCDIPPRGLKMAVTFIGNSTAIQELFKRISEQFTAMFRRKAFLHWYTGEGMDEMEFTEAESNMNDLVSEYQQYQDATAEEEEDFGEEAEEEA
UniProt Q12851, sequence (whole entry, looked up): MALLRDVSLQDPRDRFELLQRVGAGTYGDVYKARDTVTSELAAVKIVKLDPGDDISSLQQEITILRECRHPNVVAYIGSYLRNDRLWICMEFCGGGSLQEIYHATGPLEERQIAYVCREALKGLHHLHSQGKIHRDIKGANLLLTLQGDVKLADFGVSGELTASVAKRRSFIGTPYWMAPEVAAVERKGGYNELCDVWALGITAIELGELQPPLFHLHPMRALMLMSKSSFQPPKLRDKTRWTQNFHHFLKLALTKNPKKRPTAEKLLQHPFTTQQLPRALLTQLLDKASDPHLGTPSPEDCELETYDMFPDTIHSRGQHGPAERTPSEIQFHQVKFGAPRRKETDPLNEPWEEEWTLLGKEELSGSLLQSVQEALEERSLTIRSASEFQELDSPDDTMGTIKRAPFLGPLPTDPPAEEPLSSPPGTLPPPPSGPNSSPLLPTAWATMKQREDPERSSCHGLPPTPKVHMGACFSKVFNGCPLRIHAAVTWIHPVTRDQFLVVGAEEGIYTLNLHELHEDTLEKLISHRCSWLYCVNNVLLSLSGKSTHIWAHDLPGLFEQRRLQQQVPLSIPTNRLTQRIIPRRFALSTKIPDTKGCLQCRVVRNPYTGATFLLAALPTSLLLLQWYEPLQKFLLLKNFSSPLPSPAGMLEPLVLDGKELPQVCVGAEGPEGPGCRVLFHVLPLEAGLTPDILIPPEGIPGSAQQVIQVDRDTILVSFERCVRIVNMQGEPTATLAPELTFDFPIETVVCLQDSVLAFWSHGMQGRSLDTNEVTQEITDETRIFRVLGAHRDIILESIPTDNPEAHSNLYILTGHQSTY
UniProt P0DMS8, sequence (whole entry, looked up): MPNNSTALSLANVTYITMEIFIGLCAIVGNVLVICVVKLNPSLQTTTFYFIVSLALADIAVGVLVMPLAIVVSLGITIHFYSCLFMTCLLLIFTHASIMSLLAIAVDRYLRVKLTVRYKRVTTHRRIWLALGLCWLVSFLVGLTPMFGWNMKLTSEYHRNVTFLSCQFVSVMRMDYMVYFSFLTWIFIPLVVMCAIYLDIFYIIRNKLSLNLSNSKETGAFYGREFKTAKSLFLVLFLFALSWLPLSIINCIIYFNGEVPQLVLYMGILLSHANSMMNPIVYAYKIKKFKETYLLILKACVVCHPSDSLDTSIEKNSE
UniProt Q13164, sequence (whole entry, looked up): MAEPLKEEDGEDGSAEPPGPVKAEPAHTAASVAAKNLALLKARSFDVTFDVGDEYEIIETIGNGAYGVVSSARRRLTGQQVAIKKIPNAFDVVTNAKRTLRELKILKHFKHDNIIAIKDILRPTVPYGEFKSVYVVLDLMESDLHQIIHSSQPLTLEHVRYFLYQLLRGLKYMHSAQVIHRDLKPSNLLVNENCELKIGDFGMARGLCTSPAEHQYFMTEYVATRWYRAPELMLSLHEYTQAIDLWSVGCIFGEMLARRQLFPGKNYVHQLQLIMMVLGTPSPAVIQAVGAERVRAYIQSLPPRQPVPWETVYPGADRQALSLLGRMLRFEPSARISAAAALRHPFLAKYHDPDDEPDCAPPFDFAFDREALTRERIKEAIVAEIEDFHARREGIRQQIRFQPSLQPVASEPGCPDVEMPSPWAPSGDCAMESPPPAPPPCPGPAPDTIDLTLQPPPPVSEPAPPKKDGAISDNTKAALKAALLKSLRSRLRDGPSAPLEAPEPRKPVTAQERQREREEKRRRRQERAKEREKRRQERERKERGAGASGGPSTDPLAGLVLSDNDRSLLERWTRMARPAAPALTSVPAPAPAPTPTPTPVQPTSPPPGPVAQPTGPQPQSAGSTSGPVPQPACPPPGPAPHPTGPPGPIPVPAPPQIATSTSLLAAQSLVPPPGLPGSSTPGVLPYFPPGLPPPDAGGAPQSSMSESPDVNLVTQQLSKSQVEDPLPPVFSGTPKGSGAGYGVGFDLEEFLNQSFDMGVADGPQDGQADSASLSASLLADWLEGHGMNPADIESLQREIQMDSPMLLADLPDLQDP
UniProt Q8IW41, sequence (whole entry, looked up): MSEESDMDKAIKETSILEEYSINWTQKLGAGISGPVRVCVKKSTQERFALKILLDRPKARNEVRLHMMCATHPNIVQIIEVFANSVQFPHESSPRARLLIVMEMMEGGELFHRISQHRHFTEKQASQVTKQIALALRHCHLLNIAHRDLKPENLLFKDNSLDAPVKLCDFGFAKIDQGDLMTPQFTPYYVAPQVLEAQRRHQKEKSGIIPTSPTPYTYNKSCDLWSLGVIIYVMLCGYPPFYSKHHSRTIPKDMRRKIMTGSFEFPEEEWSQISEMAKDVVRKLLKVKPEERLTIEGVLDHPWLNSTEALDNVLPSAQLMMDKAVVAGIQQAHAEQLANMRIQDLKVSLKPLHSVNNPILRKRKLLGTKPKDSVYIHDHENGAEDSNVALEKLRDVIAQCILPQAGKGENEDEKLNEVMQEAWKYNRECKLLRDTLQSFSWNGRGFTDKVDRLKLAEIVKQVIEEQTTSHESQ

`C[C@H]1CN(c2n[nH]c3nc(N[C@H]4CC[C@H](NS(=O)(=O)CCC(F)(F)F)CC4)ncc23)CCO1` gave a relative abundance of 1.19 (DYNC1H1 (Homo sapiens, UniProt Q14204); inhibitor, Kinobeads competition profiling; 20 µM; reference: vehicle).
The inhibition of `O=C(Nc1cnccc1Cl)N1CCN(Cc2ccc3c(c2)OC(F)(F)O3)CC1` is reported as 7% (ryanodine receptor RyR3, rat; binding; 10 µM, with: [3H]ryanodine).
Under “binding enthalpy (ΔH)”, `Nc1nc2c(ncn2[C@@H]2O[C@@H]3COP(=O)(O)O[C@H]4[C@@H](O)[C@H](n5cnc6c(=O)[nH]c(N)nc65)O[C@@H]4COP(=O)(O)O[C@H]3[C@H]2O)c(=O)[nH]1` is recorded as 4.9 kcal/mol (Cell cycle histidine kinase CckA, cytoplasmic region (Caulobacter vibrioides, UniProt Q9X688); isothermal titration calorimetry; Caulobacter crescentus; concentration not given, 12 °C, with: ADP 5 mM).
For `O=C(Nc1cccnn1)N1CCC(=Cc2cccc(Oc3ccc(C(F)(F)F)cn3)c2)CC1`, the inhibition was -12% (MAPKAPK5 (Homo sapiens, UniProt Q8IW41); kinase activity, inhibitor; 10 µM, with: PRAK peptide substrate).
`C[C@@H](O)[C@H](NC(=O)c1ccc(-c2ccccc2)cc1)C(=O)NO` — result for “ΔS of binding”: 0.0607 kJ/(mol·K) (UDP-3-O-acyl-N-acetylglucosamine deacetylase (Pseudomonas aeruginosa, UniProt P47205, C40S); ITC; concentration not given, 298 K).
The remaining activity of `CNC(=O)Oc1cccc2c1OC(C)(C)O2` is reported as 95.4% (uncharacterized protein (Anopheles coluzzii, UniProt A0A6E8VQK1); enzyme activity, inhibitor; Sf9 cell homogenate; 1.163 µM, 0.1667 h, with: α-naphthyl acetate substrate; reference: no inhibitor).
With `[2H]c1c([2H])c([C@]2([2H])CCCN2C(=O)C(C)(C)Oc2ccc3cn[nH]c3c2)c([2H])c([2H])c1C([2H])([2H])[2H]` the remaining binding was 75% (MAPK7 (Homo sapiens, UniProt Q13164); KINOMEscan; 1 µM; reference: DMSO control).
For `COc1ccc(N2C(=O)N(c3c(C)cccc3Cl)Cc3cnc(Nc4ccc(C5CCN(C)CC5)cc4OC)nc32)nc1`, the inhibition was 11% (MAP4K2 (Homo sapiens, UniProt Q12851); kinase activity; 0.5 µM).
`O=C(c1ccc(Cl)cc1)N1CCN2C(=O)N(OC(=O)N3CCOc4ccccc43)C(=O)C2C1` (stereo not shown): “mean protein ratio” 1.07 (TUBB (Homo sapiens, UniProt P07437); MS-based ABPP; SW-620 conditioned medium; 10 µM; reference: compound over DMSO, lower = more inhibition).
With `CN1CCN(c2cc(-c3ccncc3)c(-c3ccc4ccccc4c3)nn2)CC1` the activation was 0.1% (ADORA3 (Homo sapiens, UniProt P0DMS8); agonist, FLIPR; 12.5 µM).
